Published values pooled from the literature.
Every numbered part comes from another study and shows a few of its results, in no order. Substitutions count along the parent as printed.
Sequence of UniProt Q15208 (whole entry, looked up): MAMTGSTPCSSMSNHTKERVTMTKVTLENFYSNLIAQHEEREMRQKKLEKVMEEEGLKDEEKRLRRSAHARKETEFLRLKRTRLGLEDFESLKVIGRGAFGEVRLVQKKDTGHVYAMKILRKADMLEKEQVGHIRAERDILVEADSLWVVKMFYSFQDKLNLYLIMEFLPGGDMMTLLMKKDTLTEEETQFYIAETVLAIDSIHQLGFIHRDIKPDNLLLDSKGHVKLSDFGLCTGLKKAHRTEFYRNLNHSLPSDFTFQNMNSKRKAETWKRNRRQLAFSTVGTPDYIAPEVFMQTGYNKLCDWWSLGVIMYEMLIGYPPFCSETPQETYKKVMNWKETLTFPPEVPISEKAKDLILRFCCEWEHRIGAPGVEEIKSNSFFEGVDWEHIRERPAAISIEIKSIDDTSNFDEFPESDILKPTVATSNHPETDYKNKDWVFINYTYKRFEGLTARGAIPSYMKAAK
Sequence of UniProt O95835 (whole entry, looked up): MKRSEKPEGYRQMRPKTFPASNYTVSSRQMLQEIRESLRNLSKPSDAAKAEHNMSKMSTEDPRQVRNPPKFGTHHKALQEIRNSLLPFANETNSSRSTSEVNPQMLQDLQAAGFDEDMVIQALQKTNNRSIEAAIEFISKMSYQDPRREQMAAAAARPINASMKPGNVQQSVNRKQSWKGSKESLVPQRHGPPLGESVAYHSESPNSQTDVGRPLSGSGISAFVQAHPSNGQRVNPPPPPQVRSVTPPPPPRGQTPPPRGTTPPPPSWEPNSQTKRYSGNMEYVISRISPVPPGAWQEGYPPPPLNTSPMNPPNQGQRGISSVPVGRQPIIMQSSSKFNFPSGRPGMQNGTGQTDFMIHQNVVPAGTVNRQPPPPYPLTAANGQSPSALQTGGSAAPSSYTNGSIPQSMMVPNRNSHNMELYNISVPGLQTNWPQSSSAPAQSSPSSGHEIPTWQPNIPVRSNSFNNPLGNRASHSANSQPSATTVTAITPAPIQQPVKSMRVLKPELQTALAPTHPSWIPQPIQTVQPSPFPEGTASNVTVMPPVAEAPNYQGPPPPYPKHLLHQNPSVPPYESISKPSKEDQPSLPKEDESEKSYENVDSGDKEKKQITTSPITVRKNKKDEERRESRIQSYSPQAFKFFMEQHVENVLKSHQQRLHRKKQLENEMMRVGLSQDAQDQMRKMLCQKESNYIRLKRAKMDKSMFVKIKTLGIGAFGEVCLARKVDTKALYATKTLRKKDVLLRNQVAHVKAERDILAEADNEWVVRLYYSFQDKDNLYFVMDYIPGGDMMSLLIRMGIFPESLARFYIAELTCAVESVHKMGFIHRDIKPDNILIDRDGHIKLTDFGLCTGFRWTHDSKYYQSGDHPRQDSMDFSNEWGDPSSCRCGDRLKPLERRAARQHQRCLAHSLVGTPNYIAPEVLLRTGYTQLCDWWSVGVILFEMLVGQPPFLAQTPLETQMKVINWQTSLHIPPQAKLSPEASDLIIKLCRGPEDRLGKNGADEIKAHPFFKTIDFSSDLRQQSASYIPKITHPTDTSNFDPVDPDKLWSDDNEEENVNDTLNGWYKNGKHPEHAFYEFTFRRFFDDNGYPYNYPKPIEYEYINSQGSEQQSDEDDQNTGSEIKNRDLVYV
Sequence of UniProt Q04759 (whole entry, looked up): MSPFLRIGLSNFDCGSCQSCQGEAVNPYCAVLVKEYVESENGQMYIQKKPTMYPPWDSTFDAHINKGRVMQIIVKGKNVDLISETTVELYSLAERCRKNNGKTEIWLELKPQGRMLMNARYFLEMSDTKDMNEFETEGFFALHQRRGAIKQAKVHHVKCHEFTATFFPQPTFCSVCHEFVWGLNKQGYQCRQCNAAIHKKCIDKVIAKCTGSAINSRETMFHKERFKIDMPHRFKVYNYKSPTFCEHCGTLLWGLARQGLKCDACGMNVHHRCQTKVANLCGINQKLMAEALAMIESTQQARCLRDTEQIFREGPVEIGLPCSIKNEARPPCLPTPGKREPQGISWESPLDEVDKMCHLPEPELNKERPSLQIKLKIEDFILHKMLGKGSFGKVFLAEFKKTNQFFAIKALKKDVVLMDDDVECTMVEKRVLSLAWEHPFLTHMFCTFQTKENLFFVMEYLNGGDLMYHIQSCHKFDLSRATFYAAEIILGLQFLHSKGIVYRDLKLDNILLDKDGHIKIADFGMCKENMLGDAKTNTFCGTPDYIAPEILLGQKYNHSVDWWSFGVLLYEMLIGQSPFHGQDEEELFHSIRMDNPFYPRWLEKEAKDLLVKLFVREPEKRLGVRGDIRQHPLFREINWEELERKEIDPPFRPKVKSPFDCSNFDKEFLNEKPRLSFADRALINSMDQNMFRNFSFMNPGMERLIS
Sequence of UniProt P00519 (whole entry, looked up): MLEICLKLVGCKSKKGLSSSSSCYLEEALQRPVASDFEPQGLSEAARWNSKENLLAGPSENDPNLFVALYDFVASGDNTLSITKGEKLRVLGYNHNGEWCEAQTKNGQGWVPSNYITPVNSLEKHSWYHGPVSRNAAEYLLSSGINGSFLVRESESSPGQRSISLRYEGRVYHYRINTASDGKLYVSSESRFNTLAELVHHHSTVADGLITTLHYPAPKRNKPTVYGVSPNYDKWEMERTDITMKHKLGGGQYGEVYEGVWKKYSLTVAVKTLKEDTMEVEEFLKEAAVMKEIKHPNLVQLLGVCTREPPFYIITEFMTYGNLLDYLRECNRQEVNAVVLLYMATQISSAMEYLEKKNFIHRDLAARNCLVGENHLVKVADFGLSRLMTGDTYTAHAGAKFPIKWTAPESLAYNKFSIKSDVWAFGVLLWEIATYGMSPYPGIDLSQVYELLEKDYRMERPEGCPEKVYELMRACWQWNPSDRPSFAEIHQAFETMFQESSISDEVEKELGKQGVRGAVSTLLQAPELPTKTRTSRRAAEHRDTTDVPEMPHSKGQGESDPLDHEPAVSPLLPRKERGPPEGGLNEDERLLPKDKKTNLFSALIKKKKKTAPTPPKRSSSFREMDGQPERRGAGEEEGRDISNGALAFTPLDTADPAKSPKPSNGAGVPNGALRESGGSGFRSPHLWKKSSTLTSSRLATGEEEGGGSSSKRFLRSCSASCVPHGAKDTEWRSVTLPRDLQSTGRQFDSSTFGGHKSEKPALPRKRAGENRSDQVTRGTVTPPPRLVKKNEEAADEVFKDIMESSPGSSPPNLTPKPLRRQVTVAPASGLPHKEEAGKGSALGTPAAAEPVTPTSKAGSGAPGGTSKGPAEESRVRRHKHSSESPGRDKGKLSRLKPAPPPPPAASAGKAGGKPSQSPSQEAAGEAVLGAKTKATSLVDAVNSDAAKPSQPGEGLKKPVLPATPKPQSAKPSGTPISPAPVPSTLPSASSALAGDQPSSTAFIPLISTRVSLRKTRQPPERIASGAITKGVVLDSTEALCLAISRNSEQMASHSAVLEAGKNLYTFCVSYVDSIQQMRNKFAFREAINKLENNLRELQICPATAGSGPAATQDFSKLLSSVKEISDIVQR
Sequence of UniProt P49760 (whole entry, looked up): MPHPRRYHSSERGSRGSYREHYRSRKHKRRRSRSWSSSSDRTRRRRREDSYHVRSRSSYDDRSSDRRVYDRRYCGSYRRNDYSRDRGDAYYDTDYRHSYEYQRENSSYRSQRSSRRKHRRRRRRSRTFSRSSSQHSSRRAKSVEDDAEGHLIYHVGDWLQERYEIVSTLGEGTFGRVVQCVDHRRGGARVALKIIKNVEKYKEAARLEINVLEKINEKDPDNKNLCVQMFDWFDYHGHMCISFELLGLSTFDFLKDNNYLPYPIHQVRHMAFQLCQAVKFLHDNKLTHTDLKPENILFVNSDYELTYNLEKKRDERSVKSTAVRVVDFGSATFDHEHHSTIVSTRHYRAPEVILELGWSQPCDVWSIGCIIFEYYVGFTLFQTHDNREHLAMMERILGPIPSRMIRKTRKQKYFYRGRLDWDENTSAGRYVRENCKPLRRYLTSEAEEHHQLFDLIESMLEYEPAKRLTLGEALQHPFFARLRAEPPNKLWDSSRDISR
Sequence of UniProt O15264 (whole entry, looked up): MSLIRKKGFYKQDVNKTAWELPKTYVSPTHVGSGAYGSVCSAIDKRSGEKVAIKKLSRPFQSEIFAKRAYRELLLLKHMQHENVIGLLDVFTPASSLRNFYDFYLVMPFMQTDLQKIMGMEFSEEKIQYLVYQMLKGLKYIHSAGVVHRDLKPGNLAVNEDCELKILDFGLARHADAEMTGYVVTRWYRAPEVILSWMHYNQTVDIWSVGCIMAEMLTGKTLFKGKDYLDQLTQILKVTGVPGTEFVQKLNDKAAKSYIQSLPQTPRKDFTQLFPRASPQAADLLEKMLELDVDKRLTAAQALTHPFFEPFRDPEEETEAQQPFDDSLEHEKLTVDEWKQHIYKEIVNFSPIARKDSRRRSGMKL
Sequence of UniProt Q99759 (whole entry, looked up): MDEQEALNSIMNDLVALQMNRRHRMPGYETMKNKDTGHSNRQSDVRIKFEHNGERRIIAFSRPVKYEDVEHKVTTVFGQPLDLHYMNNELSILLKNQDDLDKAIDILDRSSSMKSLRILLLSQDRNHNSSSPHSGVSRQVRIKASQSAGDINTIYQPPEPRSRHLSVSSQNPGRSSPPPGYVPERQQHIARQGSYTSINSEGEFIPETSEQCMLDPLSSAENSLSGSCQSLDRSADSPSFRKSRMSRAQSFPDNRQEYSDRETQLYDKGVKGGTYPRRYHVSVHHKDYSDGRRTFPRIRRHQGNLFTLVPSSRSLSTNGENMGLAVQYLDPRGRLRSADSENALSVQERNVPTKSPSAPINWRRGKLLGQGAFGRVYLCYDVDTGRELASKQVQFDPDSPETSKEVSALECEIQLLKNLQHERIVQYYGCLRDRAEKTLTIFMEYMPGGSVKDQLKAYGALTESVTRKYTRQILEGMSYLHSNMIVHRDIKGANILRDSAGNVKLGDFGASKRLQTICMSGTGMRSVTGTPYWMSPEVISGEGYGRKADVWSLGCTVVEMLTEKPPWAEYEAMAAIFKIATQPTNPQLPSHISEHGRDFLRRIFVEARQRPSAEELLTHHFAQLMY

Study 1
Species: mouse
Medium: microsomes or S9
Tested at: 2 µM
Time: 0.5 h
For `CS(=O)(=O)c1nc(-c2ccc(Br)cc2)n[nH]1`, the remaining compound was 80.9%.
The remaining compound of `Cc1nc(CCNCc2csc(-c3ncccn3)n2)cs1` is reported as 42.2%.
For `CN(C(=O)CN1CCc2nc(N3CCCC3)[nH]c(=O)c2C1)C1CCCCC1`, the remaining compound was 9.25%.
For `Cc1ccc(-c2nn(C(C)(C)C)c(N)c2C#N)cc1`, the remaining compound was 20.2%.

Study 2
Target: JUNB, bZIP domain (human)
Technique: DHFR protein complementation
Medium: yeast
Setting: single substitutions, most at no-binding floor
Baseline: wild-type JUN-FOS pair
Reading: higher = stronger binding
Parent: JUN, bZIP domain (human); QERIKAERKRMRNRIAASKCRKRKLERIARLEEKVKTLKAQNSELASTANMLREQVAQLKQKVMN; partner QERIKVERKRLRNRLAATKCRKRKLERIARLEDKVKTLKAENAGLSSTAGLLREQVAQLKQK
`R30K` gave a binding fitness of -1.13 natural log.
`K39F` has a binding fitness of -1.5 natural log.
With `V56L` the binding fitness was -0.965 natural log.
With `A40C` the binding fitness was -1.32 natural log.
With `V56H` the binding fitness was -1.24 natural log.
The binding fitness of `A57E` is reported as -0.848 natural log.
`L38K` has a binding fitness of -1.4 natural log.
For `L45I`, the binding fitness was -1.49 natural log.

Study 3
SMILES: CO[C@@H](C)c1c(Nc2ccc([C@H](N(C)C(=O)C3CCS(=O)(=O)CC3)C(F)(F)F)cc2)cnc2cc(Cl)nn12
Effect on: cell-free assay
Technique: competition with immobilised ligand
Tested at: 1 µM
It gave 83% for remaining binding (STK38 (Homo sapiens, UniProt Q15208)).
It gave 98% for remaining binding (MAPK12 (Homo sapiens, UniProt P53778)).
MAP3K3 (Homo sapiens, UniProt Q99759) — remaining binding: 73%.
The remaining binding was 100% (MAPK13 (Homo sapiens, UniProt O15264)).
For Tyrosine-protein kinase ABL1, non-phosphorylated (ABL1, Homo sapiens, UniProt P00519): remaining binding read 63%.
The remaining binding was 94% (SGK1 (Homo sapiens, UniProt O00141)).
It gave 91% for remaining binding (ERN1 (Homo sapiens, UniProt O75460)).
For LATS1 (Homo sapiens, UniProt O95835): remaining binding read 88%.
PIP5K1C (Homo sapiens, UniProt O60331) — remaining binding: 100%.
It gave 91% for remaining binding (Aurora kinase B (AURKB, Homo sapiens, UniProt Q96GD4)).
CDK15 (Homo sapiens, UniProt Q96Q40) — remaining binding: 74%.
The remaining binding was 90% (DCLK2 (Homo sapiens, UniProt Q8N568)).
CLK2 (Homo sapiens, UniProt P49760) — remaining binding: 100%.
The remaining binding was 100% (CSNK2A1 (Homo sapiens, UniProt P68400)).
It gave 93% for remaining binding (PRKCQ (Homo sapiens, UniProt Q04759)).
For IKBKB (Homo sapiens, UniProt O14920): remaining binding read 100%.

Single results of other studies
`ARID1A (Homo sapiens, UniProt O14497)` — result for interaction screen: “cross-linked” (SMARCD1 (Homo sapiens, UniProt Q96GM5); cross-linking MS; hits only).
Under activity class, `COc1cc2nc(N3CCN(C(=O)C4COc5ccccc5O4)CC3)nc(N)c2cc1OC` (stereo not shown) is recorded as “inactive” (Sarcocystis neurona; parasite activity; 10 µM, 96 h).
For `HSP90B1 (Homo sapiens, UniProt P14625)`, cross-linked residues read “K597 to S389” (RAD50 (Homo sapiens, UniProt Q92878); cross-linking MS; cell fractions; together with: DSSO).
Under “patients with weight decreased TEAE”, `CC(C)n1cnc(-c2ccc(F)cc2)c1-c1ncc(C(=O)Nc2ccc(N3CCN(C)CC3)cc2)[nH]1` is recorded as 0% (phase 2a clinical trial; patients with idiopathic pulmonary fibrosis; 30 mg once daily).
Under interaction screen, `PFDN1 (Homo sapiens, UniProt O60925)` is recorded as “cross-linked” (TUBA1A (Homo sapiens, UniProt Q71U36); cross-linking MS; hits only).
`CC(C)C(=O)Nc1ccc([N+](=O)[O-])c(C(F)(F)F)c1`: activity class “inactive” (Sarcocystis neurona; parasite activity; 10 µM, 96 h).

For quick reference, copied from above (study 3):
The remaining binding was 94% (SGK1 (Homo sapiens, UniProt O00141)).
The remaining binding was 90% (DCLK2 (Homo sapiens, UniProt Q8N568)).
The remaining binding was 100% (MAPK13 (Homo sapiens, UniProt O15264)).
